# Results of several laboratories.
# Protocols differ between the studies behind these lines.
# Target: G protein-coupled receptor kinase 3 (GRK3, Homo sapiens, UniProt P35626)
# Residues used in one study (P35626 1-688): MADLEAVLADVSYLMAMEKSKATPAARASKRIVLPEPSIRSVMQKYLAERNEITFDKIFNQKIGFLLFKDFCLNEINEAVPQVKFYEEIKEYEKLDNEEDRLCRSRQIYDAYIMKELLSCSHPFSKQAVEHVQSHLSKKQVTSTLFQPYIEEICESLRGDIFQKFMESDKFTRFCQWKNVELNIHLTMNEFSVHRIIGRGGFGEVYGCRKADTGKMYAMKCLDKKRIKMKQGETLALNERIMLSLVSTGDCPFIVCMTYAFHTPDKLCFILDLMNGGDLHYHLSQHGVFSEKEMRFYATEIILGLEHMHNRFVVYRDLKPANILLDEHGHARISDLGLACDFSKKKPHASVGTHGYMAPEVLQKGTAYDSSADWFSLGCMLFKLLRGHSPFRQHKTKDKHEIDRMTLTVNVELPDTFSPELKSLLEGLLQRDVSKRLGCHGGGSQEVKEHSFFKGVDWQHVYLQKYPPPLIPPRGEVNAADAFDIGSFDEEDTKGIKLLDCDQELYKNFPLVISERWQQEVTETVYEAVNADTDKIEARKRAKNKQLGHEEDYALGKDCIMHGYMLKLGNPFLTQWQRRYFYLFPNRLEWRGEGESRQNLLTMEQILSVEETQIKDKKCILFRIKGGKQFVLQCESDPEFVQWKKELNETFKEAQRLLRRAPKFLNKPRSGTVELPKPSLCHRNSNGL
SMILES,test,conditions,scale,endpoint,value
O=C(Cc1ccc(OCc2ccccc2)cc1)NC1(C(=O)O)CCN(C(=O)c2ccc(-c3cccc(Cl)c3)cc2)CC1,"enzyme activity, inhibitor",10 µM,,activity vs control,99%
Nc1ncc2c(n1)-c1c([nH]c3ccc(C4=CCOCC4)cc13)CCC2,"binding, competition with immobilised ligand",1 µM,,remaining binding,100%
CNC(=O)C1CCN(c2cc(C)c(F)cc2NC(=O)c2ccc(-c3cc(O)ccc3C)c(C)c2)CC1,"binding, competition with immobilised ligand",1 µM,,remaining binding,80%
CC(C)=CC1OC(C)(C)C2C=C3C(=O)C(Cl)=CC(O)C3C3C(O)C4OC4C(=O)C132 (stereo not drawn),"cell-free assay, competition with immobilised ligand",10 µM,,remaining binding,100%
NC(=O)C[C@H]1CCc2sc3ncnc(O[C@H]4CC[C@H](N5CCOCC5)CC4)c3c21,"enzyme activity, inhibitor",10 µM,,inhibition,0%
Cc1nc2c(F)cc(-c3nc(Nc4ccc(CNC(=O)CCCCCCC(=O)NO)cc4)ncc3F)cc2n1C(C)C,"enzyme activity, inhibitor",1 µM,,inhibition,4%
Nc1ncc(-c2cc(-c3cnn(CC(F)(F)F)c3)ncc2F)nc1C(=O)NC1CNCC(F)C1 (stereo not drawn),enzyme activity,1 µM,reference: DMSO control,remaining activity,99.2%
CNC(=O)C[C@H](Cc1ccc(C#N)cc1)NC(=O)c1cc(-c2ccc(CN[C@H](C)c3ccc(C)cc3)o2)ccc1Cl,"enzyme activity, inhibitor",1 µM,,activity vs control,99%
COc1cc(Nc2nc(C)cc(-c3cnn4nc(OC)ccc34)n2)cc(C(F)(F)F)c1,KINOMEscan,"1 µM, ADRBK2",reference: DMSO,remaining binding,100%

# Excerpt of the above:
SMILES,test,conditions,scale,endpoint,value
Nc1ncc2c(n1)-c1c([nH]c3ccc(C4=CCOCC4)cc13)CCC2,"binding, competition with immobilised ligand",1 µM,,remaining binding,100%
